Results collected from several papers.
Parts stem from different laboratories: compare values within a part only. Substitutions count along the parent as printed.

Block 1
Target: CCNA1, cyclin fold, Cln2 fusion (human)
Method: yeast growth competition, sequencing
Medium: yeast
Setting: weak parent motif
Relative to: not given
Reading: higher = stronger binding
Starting sequence: GMNC docking peptide (human); KNAKRNLSSEFAN; partner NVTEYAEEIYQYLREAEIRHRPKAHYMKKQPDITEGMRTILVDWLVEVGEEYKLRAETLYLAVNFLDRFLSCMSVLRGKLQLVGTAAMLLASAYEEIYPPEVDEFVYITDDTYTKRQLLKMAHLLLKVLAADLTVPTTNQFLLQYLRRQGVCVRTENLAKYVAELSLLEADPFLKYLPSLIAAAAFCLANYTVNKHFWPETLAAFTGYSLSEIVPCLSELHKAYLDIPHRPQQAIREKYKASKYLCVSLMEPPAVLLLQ
| Substitution | normalised enrichment score |
| --- | --- |
| KGAKRNLSSEFAN [N2G] | 0.742 |
| KNAPRNLSSEFAN [K4P] | 0.21 |
| KNAKRNLSSECAN [F11C] | -0.0446 |
| KNAKRNLSSEFLN [A12L] | 0.227 |
| KNAKRVLSSEFAN [N6V] | 0.301 |
| KNAKRNGSSEFAN [L7G] | 0.151 |
| KNAKRDLSSEFAN [N6D] | -0.189 |
| KNAKRNLSSEFKN [A12K] | 0.0827 |
| KAAKRNLSSEFAN [N2A] | 0.405 |
| KNAKRKLSSEFAN [N6K] | 0.0555 |
| KNAKRNQSSEFAN [L7Q] | 0.155 |
| KNAKRILSSEFAN [N6I] | 0.12 |
| KNAKRNLSSEFVN [A12V] | 0.187 |
| KNAKRNLSSENAN [F11N] | -0.285 |
| KNAKQNLSSEFAN [R5Q] | 0.152 |
| KNAKCNLSSEFAN [R5C] | -0.127 |
| KKAKRNLSSEFAN [N2K] | 1.28 |
| KNAKRNLSSCFAN [E10C] | 0.106 |
| KNAKRNLSVEFAN [S9V] | 0.626 |
| KNAKRNLSSEAAN [F11A] | 0.525 |
| KNAKRNLSHEFAN [S9H] | 0.477 |
| KNAKRNLSSEFPN [A12P] | 0.687 |
| KNAKRCLSSEFAN [N6C] | 0.336 |
| KNAKRNCSSEFAN [L7C] | 0.135 |
| KNAKRNLSSEFIN [A12I] | 0.716 |

Block 2
Target: Centromere-binding protein 1, full length, His-tagged (CBF1, Saccharomyces cerevisiae, UniProt P17106, residues 1-351)
Chain of UniProt P17106 (whole entry, looked up): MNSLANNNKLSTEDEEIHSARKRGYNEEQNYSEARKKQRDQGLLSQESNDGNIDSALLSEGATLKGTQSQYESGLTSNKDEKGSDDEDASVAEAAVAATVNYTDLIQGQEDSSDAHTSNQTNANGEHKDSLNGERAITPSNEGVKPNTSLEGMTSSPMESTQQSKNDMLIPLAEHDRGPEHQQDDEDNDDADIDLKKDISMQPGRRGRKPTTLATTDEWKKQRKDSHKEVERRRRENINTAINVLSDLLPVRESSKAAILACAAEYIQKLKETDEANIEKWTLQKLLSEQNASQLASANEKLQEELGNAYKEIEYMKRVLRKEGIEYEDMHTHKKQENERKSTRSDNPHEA
Method: competition protein-binding microarray
Molecule type: double-stranded DNA, one strand shown
Medium: in vitro
Concentration: 2 µM
Setting: whole 60-bp probe, lowest competitor level
With: Pho4 competitor, 0.05 µM
Reading: higher = stronger binding
All sequences stand within: … GTCTTGATTCGCTTGACGCTGCTG
| Strand | fluorescence intensity |
| --- | --- |
| CGTCCTAGCGATTGAGTCGTGGGTGCCATGAGGAAG | 74.3 a.u. |
| TCTTAAAACGAGGTTCACGTGTAACCTTGGTTGATG | 1180 a.u. |
| CTAACGAAGGTTTGATCGGTGGGTGACAAGCCAAGT | 65.1 a.u. |
| TGCGCAACAACTTTTCACGTGCAGTTATGTCTAGAA | 1140 a.u. |
| AAAGCGGTAATTTGTCACTGCACTTCACATATCTAT | 74 a.u. |
| TGGCCAAGGTTGTCTTCCGTGACTCGTACAAGTACA | 93.9 a.u. |
| GGTTTACGTCAGGGTCCTTTGGCGGGTGGTGGTTCA | 56.1 a.u. |
| ATACGACTCCCAACACACGTTTAATGTTGTACGAAT | 84 a.u. |
| TATATCTTTCTATTTCACGTTCACCTTCACCTCTGC | 87 a.u. |
| GAACAATGGAATAAGCTCGTGAGATTCCTTAACTTT | 84.1 a.u. |
| TGTACACATTACTGGCACGCTCTAATAGTTCGTTTA | 89.8 a.u. |
| ACACTTTTGGCTCAACTCGTGTGGACAAAGCGATCT | 69.9 a.u. |
| GTTCGCATCGTCCGTCACAGCAGCACCAAACACAGG | 71.1 a.u. |
| CTTCTGTAAATTTGCTGCGTGGGTGGACGCGCCCCG | 80.2 a.u. |
| CATACCCAACCTTGAATCGTGGGTGAAGATATTTGT | 67.6 a.u. |
| AAAGCGGTAATTTGTGTGGTGGGTGCAGATATCTAT | 81.2 a.u. |
| TAGTGTACTCGCGGCCACGATCCATCTGGATAACTA | 52.2 a.u. |
| TAGCTGCTCCATTAAGGCGTGATGGACTATGGAGAG | 174 a.u. |
| CGTCCTAGTGATTTTCACGTGTTATCCATGAGGAAG | 1180 a.u. |

Block 3
Target: XBP1, bZIP domain (human)
Method: DHFR protein complementation
Medium: yeast
Setting: single substitutions, most at no-binding floor
Relative to: wild-type JUN-FOS pair
Reading: higher = stronger binding
Starting sequence: JUN, bZIP domain (human); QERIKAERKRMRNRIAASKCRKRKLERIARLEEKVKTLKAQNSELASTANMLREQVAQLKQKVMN; partner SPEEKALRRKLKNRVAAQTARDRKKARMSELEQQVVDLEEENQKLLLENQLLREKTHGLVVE
| Substitution | binding fitness |
| --- | --- |
| V56R | -1.47 natural log |
| R30D | -0.371 natural log |
| A49T | -1.23 natural log |
| A57S | -0.648 natural log |
| V56M | -0.621 natural log |
| I28D | -1.34 natural log |
| A29W | -1.22 natural log |
| K34S | -1.27 natural log |
| A57K | -1.22 natural log |
| K34G | -1.44 natural log |
| R30K | -0.676 natural log |
| E33A | -0.853 natural log |
| S47L | -0.722 natural log |
| E32G | -1.39 natural log |
| M51K | -0.59 natural log |
| K34M | -1.13 natural log |
| A40C | -1.22 natural log |
| V35F | -1.45 natural log |
| A49H | -0.701 natural log |
| K36E | -0.664 natural log |

Block 4
Target: Prothrombin, mature alpha-thrombin (F2, Homo sapiens, UniProt P00734)
Method: aptamer microarray, sandwich
Molecule type: DNA with 2'F-ANA
Medium: in vitro
Concentration: 200 nM
Setting: whole 15-mer aptamer, many near background
With: Cy3 exosite-II aptamer, 400 nM
Reading: higher = stronger binding
Strand: GGTTGGTGTGGTTGG
| Modification | mean fluorescence intensity [a.u.] |
| --- | --- |
| 2'F-ANA at 2 7 9 11 12 13 14 15 | 144 |
| 2'F-ANA at 5 7 9 12 14 | 45.7 |
| 2'F-ANA at 4 6 9 13 14 15 | 65.1 |
| 2'F-ANA at 2 3 4 7 8 9 15 | 759 |
| 2'F-ANA at 1 3 4 5 6 9 11 12 13 14 15 | 48.1 |
| 2'F-ANA at 2 6 7 8 9 10 13 15 | 96.2 |
| 2'F-ANA at 3 4 5 6 7 14 15 | 50.5 |
| 2'F-ANA at 1 9 12 15 | 419 |
| 2'F-ANA at 1 2 3 5 6 7 9 11 12 14 15 | 54.2 |
| 2'F-ANA at 1 2 5 6 10 11 12 14 | 60.8 |
| 2'F-ANA at 1 2 3 4 10 13 14 15 | 51.3 |
| 2'F-ANA at 1 3 4 6 7 8 9 12 13 | 232 |
| 2'F-ANA at 3 8 13 | 1020 |
| 2'F-ANA at 3 5 8 11 12 14 | 130 |
| 2'F-ANA at 1 2 6 10 11 12 14 15 | 52.2 |
| 2'F-ANA at 4 5 6 8 9 11 14 15 | 69 |
| 2'F-ANA at 2 7 9 10 11 15 | 116 |

Block 5
Target: ABI1, truncated, D143A, DHFR fusion (Arabidopsis thaliana)
Method: DHFR PCA, deep sequencing
Medium: yeast
Setting: methotrexate growth selection, single substitutions
With: (+)-ABA 710 µM
Relative to: wild-type fitted maximum
Reading: higher = stronger binding
Starting sequence: PYL1, truncated, DHFR fusion (Arabidopsis thaliana); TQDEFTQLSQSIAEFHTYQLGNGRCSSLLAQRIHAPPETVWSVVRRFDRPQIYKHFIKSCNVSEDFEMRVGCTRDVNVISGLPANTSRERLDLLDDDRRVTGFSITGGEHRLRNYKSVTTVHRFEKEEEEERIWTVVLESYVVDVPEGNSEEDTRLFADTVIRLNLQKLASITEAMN
| Substitution | relative binding score [%] |
| --- | --- |
| V76K | -5.38 |
| N85A | 104 |
| V100C | 108 |
| S26K | 96.7 |
| E64P | 97.9 |
| L169C | 59.1 |
| F103I | 80 |
| V137T | 60.5 |
| L164K | 95.7 |
| V161T | 66.3 |
| E131C | 108 |
| G108N | 47.5 |
| A35C | 95.5 |
| E128I | 104 |
| F157A | 35.9 |
| M68C | 98.6 |
| C25Q | 77.9 |
| E151S | 101 |
| V78K | -28.5 |

Excerpt of the above (block 1):
| Substitution | normalised enrichment score |
| --- | --- |
| KAAKRNLSSEFAN [N2A] | 0.405 |
| KNAKRNLSVEFAN [S9V] | 0.626 |
| KNAKRNLSSCFAN [E10C] | 0.106 |
| KNAKRNLSSEAAN [F11A] | 0.525 |
| KNAKRNLSHEFAN [S9H] | 0.477 |
